# Measured values from different studies.
# Parts stem from different laboratories: compare values within a part only. Values joined by “and” are separate records of one study, mostly repeats; a detail may differ.
# Sequence of UniProt P21917 (whole entry, looked up): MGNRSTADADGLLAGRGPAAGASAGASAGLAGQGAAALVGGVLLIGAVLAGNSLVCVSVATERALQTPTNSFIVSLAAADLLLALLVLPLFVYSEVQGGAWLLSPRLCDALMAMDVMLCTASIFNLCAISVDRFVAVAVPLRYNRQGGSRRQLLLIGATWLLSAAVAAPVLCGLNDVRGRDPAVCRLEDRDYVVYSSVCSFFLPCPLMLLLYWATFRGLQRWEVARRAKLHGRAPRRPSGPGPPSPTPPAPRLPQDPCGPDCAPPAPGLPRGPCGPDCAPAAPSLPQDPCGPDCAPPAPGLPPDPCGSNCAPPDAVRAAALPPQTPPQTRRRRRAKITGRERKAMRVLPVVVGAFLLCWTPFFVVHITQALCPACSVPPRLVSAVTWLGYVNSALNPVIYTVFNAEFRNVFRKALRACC
# Sequence of UniProt P11229 (whole entry, looked up): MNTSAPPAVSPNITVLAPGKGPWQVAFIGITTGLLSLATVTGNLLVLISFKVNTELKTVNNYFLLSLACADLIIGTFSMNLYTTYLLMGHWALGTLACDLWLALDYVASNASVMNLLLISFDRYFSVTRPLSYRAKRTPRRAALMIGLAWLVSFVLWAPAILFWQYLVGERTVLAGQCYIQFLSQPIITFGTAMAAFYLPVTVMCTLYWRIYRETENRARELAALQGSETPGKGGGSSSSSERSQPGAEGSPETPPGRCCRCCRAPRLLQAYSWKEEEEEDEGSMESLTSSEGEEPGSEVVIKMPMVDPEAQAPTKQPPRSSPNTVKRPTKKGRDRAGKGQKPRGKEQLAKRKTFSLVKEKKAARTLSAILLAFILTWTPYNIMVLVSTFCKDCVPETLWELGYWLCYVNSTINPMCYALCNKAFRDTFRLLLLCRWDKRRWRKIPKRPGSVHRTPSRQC
# Sequence of UniProt P18089 (whole entry, looked up): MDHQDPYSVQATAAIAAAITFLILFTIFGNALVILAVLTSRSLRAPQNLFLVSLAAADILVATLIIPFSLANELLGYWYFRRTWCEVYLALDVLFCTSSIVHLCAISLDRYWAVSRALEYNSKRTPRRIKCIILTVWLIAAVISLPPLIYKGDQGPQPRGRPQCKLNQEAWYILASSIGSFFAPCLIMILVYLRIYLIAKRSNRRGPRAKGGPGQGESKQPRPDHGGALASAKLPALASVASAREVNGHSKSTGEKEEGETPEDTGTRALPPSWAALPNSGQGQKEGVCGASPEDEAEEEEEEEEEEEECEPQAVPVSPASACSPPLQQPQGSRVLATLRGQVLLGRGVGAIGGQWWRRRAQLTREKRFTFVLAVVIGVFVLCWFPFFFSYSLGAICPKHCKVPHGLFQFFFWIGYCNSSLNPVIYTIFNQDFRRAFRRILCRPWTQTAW
# Sequence of UniProt P08912 (whole entry, looked up): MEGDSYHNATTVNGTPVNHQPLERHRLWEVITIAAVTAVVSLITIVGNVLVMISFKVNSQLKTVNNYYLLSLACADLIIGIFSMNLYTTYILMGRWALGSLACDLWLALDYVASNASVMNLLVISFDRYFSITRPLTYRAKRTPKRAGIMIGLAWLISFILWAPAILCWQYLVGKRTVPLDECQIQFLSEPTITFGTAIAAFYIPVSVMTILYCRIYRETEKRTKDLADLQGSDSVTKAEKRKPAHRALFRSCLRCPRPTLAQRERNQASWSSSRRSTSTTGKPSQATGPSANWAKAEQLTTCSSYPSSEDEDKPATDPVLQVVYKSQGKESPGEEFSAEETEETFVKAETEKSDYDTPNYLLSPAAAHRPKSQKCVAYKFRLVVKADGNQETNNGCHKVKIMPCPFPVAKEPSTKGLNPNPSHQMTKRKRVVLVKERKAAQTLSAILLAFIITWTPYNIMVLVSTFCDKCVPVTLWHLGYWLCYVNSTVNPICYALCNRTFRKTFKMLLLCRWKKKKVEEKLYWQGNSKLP

# Series 1
# Structure (SMILES): N#CC1(c2ccccn2)CCN(Cc2cc(C(=O)O)c(=O)n3ccccc23)CC1
# Observed: cell-free assay
# Concentration: 10 µM
target,inhibition [%]
"ADRA1A (Homo sapiens, UniProt P35348)",-33.2
"CHRM3 (Homo sapiens, UniProt P20309)",-6.58
"OPRK1 (Homo sapiens, UniProt P41145)",47.3
"OPRM1 (Homo sapiens, UniProt P35372)",18.5
"DRD1 (Homo sapiens, UniProt P21728)",-10.7
"TMEM97 (Homo sapiens, UniProt Q5BJF2)",5.17
"SIGMAR1 (Homo sapiens, UniProt Q99720)",29.1
"CHRM2 (Homo sapiens, UniProt P08172)",-8.07
"HRH4 (Homo sapiens, UniProt Q9H3N8)",-11.4
"ADRB3 (Homo sapiens, UniProt P13945)",-5.05
"DRD5 (Homo sapiens, UniProt P21918)",-2.87
"HTR6 (Homo sapiens, UniProt P50406)",-20
"ADRA2B (Homo sapiens, UniProt P18089)",-6.86
"HTR7 (Homo sapiens, UniProt P34969)",-27
"CHRM1 (Homo sapiens, UniProt P11229)",-1
"ADRA1B (Homo sapiens, UniProt P35368)",6.68
"ADRA1D (Homo sapiens, UniProt P25100)",-5.73
"ADRA2C (Homo sapiens, UniProt P18825)",-13.9
"OPRD1 (Homo sapiens, UniProt P41143)",-20.9
"DRD4 (Homo sapiens, UniProt P21917)",-8.33
"CHRM5 (Homo sapiens, UniProt P08912)",4.74

# Series 2
# Target: Beta-1 adrenergic receptor (ADRB1, Homo sapiens, UniProt P08588)
# Sequence of UniProt P08588 (whole entry, looked up): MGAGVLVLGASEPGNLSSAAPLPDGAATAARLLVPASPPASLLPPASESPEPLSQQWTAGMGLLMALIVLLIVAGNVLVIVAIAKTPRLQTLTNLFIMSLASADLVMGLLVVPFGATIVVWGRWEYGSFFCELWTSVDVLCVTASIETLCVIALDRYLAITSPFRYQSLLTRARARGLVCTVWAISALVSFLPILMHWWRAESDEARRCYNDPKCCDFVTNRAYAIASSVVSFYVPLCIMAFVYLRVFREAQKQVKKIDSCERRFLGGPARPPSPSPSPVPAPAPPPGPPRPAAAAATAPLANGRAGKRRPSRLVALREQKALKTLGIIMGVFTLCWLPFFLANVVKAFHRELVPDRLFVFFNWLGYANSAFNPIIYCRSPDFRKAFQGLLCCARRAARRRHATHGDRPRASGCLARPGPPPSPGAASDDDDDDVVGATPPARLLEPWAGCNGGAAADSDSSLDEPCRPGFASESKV
# Mode: agonist
Structure (SMILES),EC50
Cn1c(N2CCNCC2)cc(=O)n(C)c1=O,≥ 100 µM
CC(C)(C)NC[C@H](O)c1ccc(O)cc1Cl,0.00833 µM
CN1CCN(c2ccc3ccccc3n2)CC1,≥ 100 µM
Cc1[nH]c2ccc(O)cc2c1CCN,≥ 100 µM

# Series 3
# Organism: Plasmodium berghei
# Cells: Huh-7
# Strain: liver stage
# Concentration: 10 µM
# Time: 24 h
# Baseline: control
Compound,parasite load [%]
CCCC(C)C1(CC)C(=O)NC(=O)NC1=O (stereo not drawn),91.7
CCC(=O)O[C@H]1CC[C@H]2[C@@H]3CCc4cc(O)ccc4[C@H]3CC[C@]12C,129
C=C[C@H]1CN2CC[C@H]1C[C@@H]2[C@@H](O)c1ccnc2ccccc12,64
C[C@]12C=CC(=O)C=C1CC[C@@H]1[C@@H]2[C@@H](O)C[C@@]2(C)[C@H]1CC[C@]2(O)C(=O)COC(=O)CCC(=O)O,104
CC(=O)O[C@H]1C[C@H](O[C@H]2[C@@H](O)C[C@H](O[C@H]3[C@@H](O)C[C@H](O[C@H]4CC[C@@]5(C)[C@H](CC[C@@H]6[C@@H]5C[C@@H](O)[C@]5(C)[C@@H](C7=CC(=O)OC7)CC[C@]65O)C4)O[C@@H]3C)O[C@@H]2C)O[C@H](C)[C@H]1O[C@@H]1O[C@H](CO)[C@@H](O)[C@H](O)[C@H]1O,18.5
CN[C@@H](C)[C@@H](O)c1ccccc1,102
COC(=O)C(c1ccccc1)C1CCCCN1 (stereo not drawn),55.8
FC(F)(F)COCC(F)(F)F,91.7
Cc1ccc(O)c([C@H](CCN(C(C)C)C(C)C)c2ccccc2)c1,106

# Series 4
# Target: DNA polymerase theta, ATPase domain (POLQ, Homo sapiens, UniProt O75417)
# Sequence of UniProt O75417 (whole entry, unmodified, looked up): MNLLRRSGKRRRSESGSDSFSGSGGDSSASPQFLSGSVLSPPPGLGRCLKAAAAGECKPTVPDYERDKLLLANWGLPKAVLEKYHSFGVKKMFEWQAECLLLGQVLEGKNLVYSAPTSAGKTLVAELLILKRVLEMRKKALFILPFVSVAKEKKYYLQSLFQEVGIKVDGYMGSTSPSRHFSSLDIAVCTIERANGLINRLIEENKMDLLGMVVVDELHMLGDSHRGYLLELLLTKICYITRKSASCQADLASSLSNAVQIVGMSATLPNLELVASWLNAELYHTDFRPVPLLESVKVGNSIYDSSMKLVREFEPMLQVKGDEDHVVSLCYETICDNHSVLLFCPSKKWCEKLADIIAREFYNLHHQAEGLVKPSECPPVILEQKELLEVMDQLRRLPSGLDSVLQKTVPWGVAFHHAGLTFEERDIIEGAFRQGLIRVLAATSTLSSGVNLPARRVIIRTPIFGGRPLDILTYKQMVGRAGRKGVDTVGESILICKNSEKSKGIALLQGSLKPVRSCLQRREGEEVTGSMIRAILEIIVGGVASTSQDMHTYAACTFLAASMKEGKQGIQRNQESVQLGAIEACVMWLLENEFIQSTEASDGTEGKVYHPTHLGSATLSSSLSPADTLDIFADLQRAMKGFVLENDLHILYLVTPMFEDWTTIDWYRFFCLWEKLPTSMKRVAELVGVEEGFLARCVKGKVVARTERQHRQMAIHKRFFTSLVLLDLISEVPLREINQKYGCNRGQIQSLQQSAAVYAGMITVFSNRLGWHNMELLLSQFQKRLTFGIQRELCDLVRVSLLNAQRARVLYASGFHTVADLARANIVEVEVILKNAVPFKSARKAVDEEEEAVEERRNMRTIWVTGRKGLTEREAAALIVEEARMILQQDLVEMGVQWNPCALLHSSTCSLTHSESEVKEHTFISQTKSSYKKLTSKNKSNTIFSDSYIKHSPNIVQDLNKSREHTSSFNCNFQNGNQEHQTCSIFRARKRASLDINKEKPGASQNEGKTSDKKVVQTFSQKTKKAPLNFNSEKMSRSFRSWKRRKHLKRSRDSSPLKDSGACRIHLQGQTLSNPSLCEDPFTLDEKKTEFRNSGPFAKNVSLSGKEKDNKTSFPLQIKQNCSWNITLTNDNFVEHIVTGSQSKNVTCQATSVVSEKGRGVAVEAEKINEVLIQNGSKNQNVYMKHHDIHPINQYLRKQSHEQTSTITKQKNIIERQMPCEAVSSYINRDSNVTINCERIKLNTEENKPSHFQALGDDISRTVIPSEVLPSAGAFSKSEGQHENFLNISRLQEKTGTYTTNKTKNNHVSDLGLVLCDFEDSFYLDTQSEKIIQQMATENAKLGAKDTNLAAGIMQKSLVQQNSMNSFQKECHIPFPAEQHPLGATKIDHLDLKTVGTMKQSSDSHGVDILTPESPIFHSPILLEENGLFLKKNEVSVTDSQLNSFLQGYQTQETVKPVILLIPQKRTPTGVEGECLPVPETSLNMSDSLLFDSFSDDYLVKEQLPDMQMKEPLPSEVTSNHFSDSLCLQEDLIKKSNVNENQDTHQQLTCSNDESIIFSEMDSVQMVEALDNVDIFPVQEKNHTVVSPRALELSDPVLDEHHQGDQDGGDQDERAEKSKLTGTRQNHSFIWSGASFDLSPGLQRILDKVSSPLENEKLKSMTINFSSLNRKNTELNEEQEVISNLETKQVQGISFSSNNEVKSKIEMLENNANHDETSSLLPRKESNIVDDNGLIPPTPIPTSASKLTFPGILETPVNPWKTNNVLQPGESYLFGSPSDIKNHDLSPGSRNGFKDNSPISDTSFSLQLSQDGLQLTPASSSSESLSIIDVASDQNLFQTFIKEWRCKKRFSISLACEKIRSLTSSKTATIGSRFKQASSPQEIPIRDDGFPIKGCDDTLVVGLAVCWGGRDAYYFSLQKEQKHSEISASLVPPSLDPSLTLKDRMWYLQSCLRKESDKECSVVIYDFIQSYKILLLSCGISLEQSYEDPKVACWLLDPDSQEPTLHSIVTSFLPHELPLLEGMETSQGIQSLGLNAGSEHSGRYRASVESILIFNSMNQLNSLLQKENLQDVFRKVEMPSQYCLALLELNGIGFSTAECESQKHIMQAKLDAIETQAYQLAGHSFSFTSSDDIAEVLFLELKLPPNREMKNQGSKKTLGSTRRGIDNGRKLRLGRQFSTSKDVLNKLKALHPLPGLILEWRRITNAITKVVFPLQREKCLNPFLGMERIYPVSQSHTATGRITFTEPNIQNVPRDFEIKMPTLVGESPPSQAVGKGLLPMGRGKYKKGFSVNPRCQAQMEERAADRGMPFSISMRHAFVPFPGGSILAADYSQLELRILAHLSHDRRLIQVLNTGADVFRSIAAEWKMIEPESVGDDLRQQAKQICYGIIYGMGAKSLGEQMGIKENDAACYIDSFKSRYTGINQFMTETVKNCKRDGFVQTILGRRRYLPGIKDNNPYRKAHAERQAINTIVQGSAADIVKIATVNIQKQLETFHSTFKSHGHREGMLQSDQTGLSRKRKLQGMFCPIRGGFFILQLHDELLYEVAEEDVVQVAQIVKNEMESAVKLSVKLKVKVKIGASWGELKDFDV
# Observed: enzyme activity
# Mode: inhibitor
# Concentration: 77 µM
# Baseline: untreated
SMILES,remaining activity
CN[C@@H]1C[C@H]2O[C@@](C)([C@@H]1OC)n1c3ccccc3c3c4c(c5c6ccccc6n2c5c31)C(=O)NC4,96.3% and 93.4% and 101%
Cc1c(N)nc([C@H](CC(N)=O)NC[C@H](N)C(N)=O)nc1C(=O)N[C@H](C(=O)N[C@H](C)[C@@H](O)[C@H](C)C(=O)N[C@H](C(=O)NCCc1nc(-c2nc(C(=O)NCCC[S+](C)C)cs2)cs1)[C@@H](C)O)[C@@H](O[C@@H]1O[C@@H](CO)[C@@H](O)[C@H](O)[C@@H]1O[C@H]1O[C@H](CO)[C@@H](O)[C@H](OC(N)=O)[C@@H]1O)c1cnc[nH]1,89.3%
C[C@H]1CC[C@]2(NC1)O[C@H]1C[C@H]3[C@@H]4CC[C@H]5C[C@@H](O)CC[C@]5(C)[C@H]4CC[C@]3(C)[C@H]1[C@@H]2C,109%
C[C@@H]1O[C@H](C[N+](C)(C)C)C[C@H]1O,100%
Oc1ccc2c3c1O[C@H]1c4[nH]c5c(c4C[C@@]4(O)[C@@H](C2)N(CC2CC2)CC[C@]314)C[C@@]1(O)[C@H]2Cc3ccc(O)c4c3[C@@]1(CCN2CC1CC1)[C@H]5O4,105%
O=C(NCNC(=O)NC1C(=O)NC(=O)N1CO)NC1C(=O)NC(=O)N1CO (stereo not drawn),97.4%
N#C/C(=C\c1ccc(O)c(O)c1)C(N)=S,92.3%
CC(Cc1ccc(O)cc1)NCC(O)c1cc(O)cc(O)c1 (stereo not drawn),101%

# Excerpt of the above (series 1):
target,inhibition [%]
"DRD5 (Homo sapiens, UniProt P21918)",-2.87
"CHRM3 (Homo sapiens, UniProt P20309)",-6.58
"ADRA2B (Homo sapiens, UniProt P18089)",-6.86
"HTR6 (Homo sapiens, UniProt P50406)",-20
"ADRA1A (Homo sapiens, UniProt P35348)",-33.2
"OPRK1 (Homo sapiens, UniProt P41145)",47.3
"ADRA1B (Homo sapiens, UniProt P35368)",6.68
